Published values from different studies.
Protocols differ between the studies behind these lines. Values joined by “and” are separate records of one study, mostly repeats; a detail may differ. Numbers after ± are the reported error.

SMILES | assay | test system | setting | AUC(0-tau)
CC(C)c1nc(CN(C)C(=O)N[C@H](C(=O)N[C@@H](Cc2ccccc2)C[C@H](O)[C@H](Cc2ccccc2)NC(=O)OCc2cncs2)C(C)C)cs1 | – | human, plasma | oral, 100 mg twice daily, day 14, with: saquinavir 1000 mg twice daily | 5510 ng·h/mL
C[C@]12C=CC(=O)C=C1CC[C@@H]1[C@@H]2[C@@H](O)C[C@@]2(C)[C@H]1C[C@H]1O[C@@H](C3CCCCC3)O[C@]12C(=O)CO | – | children with asthma, serum | inhaled, 160 µg ciclesonide, day 7, HFA-MDI with spacer, tau 24 h | 0.663 ± 0.042 ng·h/mL
C#C[C@]1(O)CC[C@H]2[C@@H]3CCc4cc(O)ccc4[C@H]3CC[C@@]21C | – | HIV-positive women, serum | oral, 30 µg, 24 h after last dose, control arm, steady state | 1.85 ± 0.433 ng·h/mL
Cc1cc(Nc2ncc(Cl)c(Nc3ccccc3S(=O)(=O)C(C)C)n2)c(OC(C)C)cc1C1CCNCC1 | – | human, plasma | oral, 750 mg/day, after dose 9 | 24.6 µmol·h/L and 45.1 µmol·h/L and 20.1 µmol·h/L
Cc1ccc(NC(=O)c2ccc(CN3CCN(C)CC3)cc2)cc1Nc1nccc(-c2cncc(-c3oncc3C)c2)n1 | – | healthy volunteers, plasma | oral, 12.5 mg once daily, day 1, 7-day dosing, mean | 6080 ng·h/mL
C[C@H]1CN(C(=O)CC#N)[C@]12CCN(c1ncnc3[nH]ccc13)C2 | – | atopic dermatitis patients, plasma | topical, 5 g of 3% ointment twice daily, day 7 | 25.2 ± 11.3 ng·h/mL
C=C(C)[C@@H]1CC[C@]2(NCCN3CCS(=O)(=O)CC3)CC[C@]3(C)[C@H](CC[C@@H]4[C@@]5(C)CC=C(C6=CC[C@@](CF)(C(=O)O)CC6)C(C)(C)[C@@H]5CC[C@]43C)[C@@H]12 | LC-MS/MS | HIV-1-infected treatment-naive adults, plasma | oral, 40 mg once daily, day 7, monotherapy | 7460 ng·h/mL
Nc1cc(F)ccc1NC(=O)c1ccc(CNC(=O)/C=C/c2cccnc2)cc1 | – | Japanese patients, plasma | oral, 40 mg twice weekly, cycle 1 day 25 | 6010 ng·h/mL
C[C@@H](N)c1cc(Cl)ccc1Cn1c(=S)[nH]c(=O)c2[nH]ccc21 | – | healthy Japanese volunteers, plasma | oral, 10 mg once daily, day 1, geometric mean | 0.416 µmol·h/L

Repeated from above:
SMILES | assay | test system | setting | AUC(0-tau)
C#C[C@]1(O)CC[C@H]2[C@@H]3CCc4cc(O)ccc4[C@H]3CC[C@@]21C | – | HIV-positive women, serum | oral, 30 µg, 24 h after last dose, control arm, steady state | 1.85 ± 0.433 ng·h/mL
